Assay results pooled from the literature.
Numbered parts are unrelated; each lists some results of a single study. Changes are numbered by the printed parent chain.
Chain of UniProt P63146 (whole entry, looked up): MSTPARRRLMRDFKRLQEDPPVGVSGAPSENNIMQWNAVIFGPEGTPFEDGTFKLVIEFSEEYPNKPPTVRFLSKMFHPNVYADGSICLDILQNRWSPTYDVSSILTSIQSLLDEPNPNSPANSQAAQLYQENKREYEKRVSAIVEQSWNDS
Chain of UniProt Q9H832 (whole entry, looked up): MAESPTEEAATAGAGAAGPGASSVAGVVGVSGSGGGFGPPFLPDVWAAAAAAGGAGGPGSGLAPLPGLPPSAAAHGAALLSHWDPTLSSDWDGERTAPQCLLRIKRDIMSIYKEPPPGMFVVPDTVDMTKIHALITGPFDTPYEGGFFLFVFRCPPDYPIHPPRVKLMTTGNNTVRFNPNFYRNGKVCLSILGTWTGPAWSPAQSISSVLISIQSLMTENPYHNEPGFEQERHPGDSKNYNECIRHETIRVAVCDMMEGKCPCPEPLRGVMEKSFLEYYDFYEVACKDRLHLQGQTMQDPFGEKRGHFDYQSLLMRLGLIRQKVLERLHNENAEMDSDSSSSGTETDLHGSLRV
Chain of UniProt Q9C0C9 (whole entry, looked up): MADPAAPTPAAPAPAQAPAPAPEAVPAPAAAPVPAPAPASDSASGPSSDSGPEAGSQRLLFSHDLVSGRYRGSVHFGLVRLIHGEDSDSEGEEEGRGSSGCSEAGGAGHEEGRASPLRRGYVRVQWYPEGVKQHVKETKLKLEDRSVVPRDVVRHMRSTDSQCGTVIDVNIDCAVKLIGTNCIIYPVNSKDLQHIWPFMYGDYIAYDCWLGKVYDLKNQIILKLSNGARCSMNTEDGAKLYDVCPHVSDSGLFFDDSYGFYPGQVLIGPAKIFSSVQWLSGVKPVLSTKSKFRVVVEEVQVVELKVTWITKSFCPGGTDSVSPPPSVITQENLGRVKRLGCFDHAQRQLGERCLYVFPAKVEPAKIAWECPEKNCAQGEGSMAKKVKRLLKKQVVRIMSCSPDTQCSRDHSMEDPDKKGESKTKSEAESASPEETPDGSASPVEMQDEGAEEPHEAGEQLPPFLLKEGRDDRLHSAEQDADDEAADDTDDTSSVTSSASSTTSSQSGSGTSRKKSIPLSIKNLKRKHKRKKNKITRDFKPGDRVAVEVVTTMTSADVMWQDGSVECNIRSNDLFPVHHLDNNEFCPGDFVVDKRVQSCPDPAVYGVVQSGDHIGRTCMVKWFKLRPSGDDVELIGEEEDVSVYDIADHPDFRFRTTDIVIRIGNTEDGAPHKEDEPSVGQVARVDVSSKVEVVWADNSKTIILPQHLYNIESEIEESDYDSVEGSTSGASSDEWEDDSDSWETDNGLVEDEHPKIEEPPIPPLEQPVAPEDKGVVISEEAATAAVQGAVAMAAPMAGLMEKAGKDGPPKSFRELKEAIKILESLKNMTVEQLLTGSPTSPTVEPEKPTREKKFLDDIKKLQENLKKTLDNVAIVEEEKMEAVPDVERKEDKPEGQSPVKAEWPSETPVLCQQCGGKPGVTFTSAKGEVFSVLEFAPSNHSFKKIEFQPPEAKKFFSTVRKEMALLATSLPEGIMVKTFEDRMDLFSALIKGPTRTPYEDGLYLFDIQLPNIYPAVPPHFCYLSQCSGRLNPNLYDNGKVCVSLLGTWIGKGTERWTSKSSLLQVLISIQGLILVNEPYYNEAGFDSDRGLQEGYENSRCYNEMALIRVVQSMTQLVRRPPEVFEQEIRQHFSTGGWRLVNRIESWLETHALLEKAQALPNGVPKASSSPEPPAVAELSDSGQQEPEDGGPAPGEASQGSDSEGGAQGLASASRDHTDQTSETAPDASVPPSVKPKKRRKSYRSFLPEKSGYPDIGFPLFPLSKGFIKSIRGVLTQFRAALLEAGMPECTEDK
Chain of UniProt Q9Y385 (whole entry, looked up): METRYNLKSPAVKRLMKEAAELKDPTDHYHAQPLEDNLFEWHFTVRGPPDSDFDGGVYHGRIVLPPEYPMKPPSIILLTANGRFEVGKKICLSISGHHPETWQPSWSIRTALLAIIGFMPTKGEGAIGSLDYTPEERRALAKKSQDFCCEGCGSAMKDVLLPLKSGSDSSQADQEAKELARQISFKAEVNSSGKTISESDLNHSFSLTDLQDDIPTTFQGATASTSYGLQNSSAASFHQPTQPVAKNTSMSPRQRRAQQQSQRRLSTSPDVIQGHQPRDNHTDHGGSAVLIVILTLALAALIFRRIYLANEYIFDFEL
Chain of UniProt Q712K3 (whole entry, looked up): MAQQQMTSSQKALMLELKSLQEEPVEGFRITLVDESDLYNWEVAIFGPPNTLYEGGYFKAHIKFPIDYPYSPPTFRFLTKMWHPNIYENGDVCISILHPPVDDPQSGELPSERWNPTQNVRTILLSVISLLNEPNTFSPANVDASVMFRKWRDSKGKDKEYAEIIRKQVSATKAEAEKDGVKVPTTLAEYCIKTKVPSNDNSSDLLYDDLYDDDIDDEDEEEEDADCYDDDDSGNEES
Chain of UniProt Q7Z7E8 (whole entry, looked up): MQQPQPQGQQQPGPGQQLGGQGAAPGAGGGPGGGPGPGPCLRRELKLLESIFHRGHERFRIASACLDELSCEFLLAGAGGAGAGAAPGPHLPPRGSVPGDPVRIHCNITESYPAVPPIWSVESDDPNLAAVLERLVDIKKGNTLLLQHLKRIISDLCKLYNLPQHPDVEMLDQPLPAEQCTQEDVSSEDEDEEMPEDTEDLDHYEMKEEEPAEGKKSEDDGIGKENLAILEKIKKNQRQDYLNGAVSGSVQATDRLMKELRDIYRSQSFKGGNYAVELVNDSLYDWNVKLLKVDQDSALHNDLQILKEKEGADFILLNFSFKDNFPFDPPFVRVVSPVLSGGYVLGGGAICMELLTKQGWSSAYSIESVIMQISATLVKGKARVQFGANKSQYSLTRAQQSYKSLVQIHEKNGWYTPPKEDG
Chain of UniProt Q8N2K1 (whole entry, looked up): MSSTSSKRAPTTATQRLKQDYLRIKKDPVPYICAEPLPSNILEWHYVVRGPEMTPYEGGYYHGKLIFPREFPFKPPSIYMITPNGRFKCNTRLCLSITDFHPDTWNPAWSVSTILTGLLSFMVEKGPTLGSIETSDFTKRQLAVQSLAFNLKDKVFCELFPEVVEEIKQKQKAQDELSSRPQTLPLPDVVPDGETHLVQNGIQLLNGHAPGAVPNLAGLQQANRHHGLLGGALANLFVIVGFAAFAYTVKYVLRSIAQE

Series 1
Target: Centromere-binding protein 1, full length, His-tagged (CBF1, Saccharomyces cerevisiae, UniProt P17106, residues 1-351)
Chain of UniProt P17106 (whole entry, looked up): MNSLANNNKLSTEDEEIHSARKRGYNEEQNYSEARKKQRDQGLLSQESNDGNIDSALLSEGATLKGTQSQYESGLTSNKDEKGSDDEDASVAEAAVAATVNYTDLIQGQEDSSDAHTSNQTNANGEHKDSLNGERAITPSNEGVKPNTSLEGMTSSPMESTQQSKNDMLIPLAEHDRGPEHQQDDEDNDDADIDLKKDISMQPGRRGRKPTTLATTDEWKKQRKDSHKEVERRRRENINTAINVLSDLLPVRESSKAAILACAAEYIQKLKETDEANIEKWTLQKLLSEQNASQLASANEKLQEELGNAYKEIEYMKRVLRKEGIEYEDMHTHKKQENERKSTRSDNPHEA
Technique: competition protein-binding microarray
Form: double-stranded DNA, one strand shown
Matrix: in vitro
Tested at: 2 µM
Setting: whole 60-bp probe, lowest competitor level
With: Pho4 competitor, 0.05 µM
Reading: higher = stronger binding
Constant ends, left off below: … GTCTTGATTCGCTTGACGCTGCTG
Sequence	fluorescence intensity
TCTTTCTTTCACCATCACGTCTTGGTCTGTAACAAG	83.3 a.u.
GTCTTGTCTCATTGTACAGTGGGTGTCCCCACTTCA	75.8 a.u.
CTTCTGTAAATTTGGTTGGTGGGTGGACGCGCCCCG	85.3 a.u.
GTCTTGTCTCATTGTCACGGGACTTTCCCCACTTCA	1130 a.u.
AGTTGGTACCTTTTCACCGTGAGTATCGAACTTGAA	78 a.u.
AACCTACATCTTCACATCGTGGCCGAATTGAAGCTA	62.4 a.u.
TGCGCAACAACTTGCAGTGTGGGTGTATGTCTAGAA	67.2 a.u.
CAAAAACAGCCTCCTCACGTGCCAGCATCTGTCTTG	839 a.u.
GGACATAACATCGGACTTGTGACGGACGAATCTTTG	80.3 a.u.
CTTTCCCGATCTTGCGGAGTGGGTGTAGCACATTTG	68 a.u.
GTCCCAAGCAGCTTCATCGTGATGGTCTCCTTCAGG	65.8 a.u.

Series 2
Target: ABI1, truncated, D143A, DHFR fusion (Arabidopsis thaliana)
Technique: DHFR PCA, deep sequencing
Matrix: yeast
Setting: methotrexate growth selection, single substitutions
With: (+)-ABA 1.4 µM
Relative to: wild-type fitted maximum
Reading: higher = stronger binding
Parent: PYL1, truncated, DHFR fusion (Arabidopsis thaliana); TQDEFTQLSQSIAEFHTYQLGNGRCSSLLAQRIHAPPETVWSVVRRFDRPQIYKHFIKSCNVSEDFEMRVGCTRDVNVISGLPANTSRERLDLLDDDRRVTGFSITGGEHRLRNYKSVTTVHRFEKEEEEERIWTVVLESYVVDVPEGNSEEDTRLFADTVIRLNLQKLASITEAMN
Change	relative binding score [%]
E4V	72.6
F157C	2.97
K116R	62.9
K168R	51.6
A175P	14.4
R113Q	74.4
P36A	42.9
V70E	31.4
V137D	-0.873
R74C	7.26
T119H	-2.18
V100F	-11.5
Q10G	60.9
P37E	7.13
V43Y	1.46
Q51R	2.56

Series 3
Sequence: KEQLEKHNDICAICYQDMKSAVITPCSHFFHAGCLKKWLYVQETCPLCHCHLKNSSQLP (RNF145 RING domain (UniProt Q96MT1))
Technique: yeast two-hybrid
Matrix: yeast
Setting: mostly zero background
Relative to: not given
Reading: higher = stronger interaction
target	lacZ reporter activity
UBE2Q1 UBC core domain (UniProt Q7Z7E8)	0
UBE2J2 UBC core domain (UniProt Q8N2K1)	0
UBE2J1 UBC core domain (UniProt Q9Y385)	0
UBE2R2 UBC core domain (UniProt Q712K3)	0
UBE2I UBC core domain (UniProt P63279)	0
UBE2Z UBC core domain (UniProt Q9H832)	0
UBE2O UBC core domain (UniProt Q9C0C9)	0
UBE2B UBC core domain (UniProt P63146)	0

Series 4
Target: Histone acetyltransferase KAT6A, winged helix 2, GST fusion (KAT6A, Homo sapiens, UniProt Q92794, residues 85-181)
Technique: protein binding microarray
Form: double-stranded DNA, one strand shown
Matrix: in vitro
Tested at: not given
Setting: 8-mer, flanks averaged, mean of 2 arrays, mostly near background
Relative to: not given
Reading: higher = stronger binding
Target sequence (chain): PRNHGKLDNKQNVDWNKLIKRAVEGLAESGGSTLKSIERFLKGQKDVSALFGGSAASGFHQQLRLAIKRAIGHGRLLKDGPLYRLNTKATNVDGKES
Sequence	E-score
GAGTTGCC	0.106
AAAAAGTT	-0.0352
AGTGCACT	-0.0169
CTGCCATC	0.115
ACGAATTC	0.154
CGCCAAAC	0.0999
ATGACTAA	-0.238
CTTTCTCC	0.0891
AAGCTTGG	-0.0123
GCACCCCC	-0.0182
AATAAAGG	-0.0913
ACGAAATG	0.0696
ACATTTCC	0.0228
ACTCACAG	0.0471
TAAGAGGA	0.0166
CCCCGGAG	0.231
AAACCAAT	0.031
ACTCAAAA	0.0773
CGGTATAG	-0.203
CAACCGTC	-0.0181
ACCGACAG	0.0734
AGCTAGAG	-0.0396

Series 5
Target: Interferon regulatory factor 5, full length, phosphomimetic (IRF5, Homo sapiens, UniProt Q13568-2, residues 1-514, S451D/S453D/S456D/S462D)
Technique: protein-binding microarray
Form: double-stranded DNA, one strand shown
Matrix: in vitro
Tested at: 940 nM top
Setting: 60-bp whole probe
With: salmon DNA 0.4 mg/ml
Relative to: random background probes
Reading: higher = stronger binding
Constant ends, left off below: GCCTAGCAC … GTCTTGATTCGCTTGACGCTGCTG
Sequence	fitted relative affinity
TTAGACCTCAGTATCGATTAGTGCTAG	4.51 z-score
GACGGACTGGACTTTGGGGACGTGCTA	-0.507 z-score
TTAGATTTCGGGAATGGATTAGTGCTA	0.725 z-score
TGGTTTTTACTTTCTGAATGGTGCTAG	2.34 z-score
GACAGTATCGGTTTCGGGACGTGCTAG	10.2 z-score
TTAGAACTGGGGTTTCTATTAGTGCTA	1.23 z-score
GACGATATCAGTCTCGAGCCGTGCTAG	0.679 z-score
TTCTGAAGCAGAGCCCTGTTGTGCTAG	-0.528 z-score
TTAGGTTTCGGCTCCGGTTAGTGCTAG	9.58 z-score
TCAAAGTTCATGTTCAAACTGTGCTAG	-0.376 z-score
GACGGTTCCCTTTTCCTGGCGTGCTAG	1.07 z-score
GACGATATCGGGTATCGAGGCGTGCTA	0.879 z-score
TTAGATTTCAGTATCGAGTAGTGCTAG	2.8 z-score
TCATTTTTTTCTTTTATACTGTGCTAG	2.25 z-score
GACGAACTGAATCTCGAGACGTGCTAG	-0.114 z-score
GACGATCTCAGTATCGAGCCGTGCTAG	1.46 z-score
GAAGATTTCAGTTCCGAGACGTGCTAG	0.588 z-score
GACGGACTGGGGTTTCGCGACGTGCTA	0.344 z-score
GACGGTTTCCTTTTCGTGACGTGCTAG	2.04 z-score
AACATACTCGTTTACATTTTGTGCTAG	0.419 z-score

Series 6
Target: CCND1, cyclin fold, Cln2 fusion (human)
Technique: yeast growth competition, sequencing
Matrix: yeast
Setting: strong parent motif
Relative to: not given
Reading: higher = stronger binding
Parent: RBL1 docking peptide (human); GSAKRRLFGEDPP
Change	normalised enrichment score
E10F	0.825
K4F	0.727
G1V	1.89
E10P	1.4
D11M	0.494
S2Y	0.754
P12S	2.99
P13S	1.38
P12E	3.18
F8K	0.379
R5D	1.04

Series 7
Target: RNA binding protein fox-1 homolog 2, RRM domain, GST-SBP tag (RBFOX2, Homo sapiens, UniProt O43251-10, residues 100-194)
Technique: RNA Bind-n-Seq
Form: RNA
Matrix: in vitro
Tested at: 365 nM
Setting: natural RNA segment, single round, ends assumed
Relative to: no-protein control
Reading: higher = stronger binding
Constant ends, left off below: GGGAGUUCUACAGUCCGACGAUC … UGGAAUUCUCGGGUGCCAA
Residues (chain): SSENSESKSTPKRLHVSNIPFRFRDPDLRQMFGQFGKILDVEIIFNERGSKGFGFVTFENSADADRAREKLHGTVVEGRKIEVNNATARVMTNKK
Sequence	RBNS enrichment (R)
ACGGUCGUAUUUUCCUCCCUACCCGCCAAGUCAUCCUUUCUACUGCUUUUGAGGCCCUCCCUCAGCUCUCUGUGGGUAGGGGUUACAAUUCACAUUCCUUAUUCUGAGAA	0.291
CAGCCCCCAUAUGCACCCACCCUGUCGCUAUCUUGGAUGGCCCGCUCUGGGAGAUGUUGGGUGUUUUAAGGUUACUGAACCUACAAAGGCCCCUCCUCCCUGACCACCCA	0.815
GAUUGGGAGAGGAGGCAGCUUAGCUGGAAGCUGUGCCCAUCUUACUGUCACUGGAGAAUAGGAUGUCAGAGCUGGGCAGGACUGGUACCCAUCAUUUGCAGUUUGCAUGU	12.2
CUCAGCCUUCAGUCACAUUUAGUCAUGGUCUGCCUGUGAGCGCAGUGAGUUCUCUCCUGACAGCUGUGAGCUCAGCUGGUGUGGGUGAGCCUUUCCUGCAGGAAGAGCCU	0.431
GAAGUUGACAAGACACAUCUUGAGUAUGGCUGGCACUGGUUCCUCCAUCAAGAACCAAGUUCACCUUCAGCUCCUGUGGCCCCGCCCCCAGGCUGGAGUCAGAAAUGUUU	0.245
AAAGGGGAUGCCCAGUGGUUUCCCUUUGCUUCCCAACCUAAAAUUUCAAGUUUAAUAAAAUAGCAAUUAGCAGAAGUGACCAAAUUGGGAGAUAAUUAUCAGUCAUGAGG	0.291
UCUAACCAUAUACGAUAGGGCUCUUCGCUUUUAAUGAUAUCUGGGAUUUCUGUGGAACUUGGCAAAUUUUCAGAGCACCUUCACUCACAUAAUGUCAUUUGAACCUCACA	0.499
GUGGAUGGAGCAAGACUGUGAACACGUGUGACCCGGACCCACCUACAGCCCGGUGGACCUUCAGCCAAGAAACGCUGACUUCAUUCUCUAUUGCCCCUGCUGAGGGGCUC	0.556
AAUGGCAGCAACAAUUUUGCCAUUUCUAUUGACUUUCACAUAGGCGCCCCCAAACACACACAACAACAGAGGUUACCCUGUUCUGUCUACUCUACAGUGACUACCUGUGG	0.308
UAUUUUCCUUACUGAAAUCAAGUGUUUGACUUUUUACAAAAGUGAAACCUUACCCGAGAGGAGUUUCCUAUCUCUGGAUGGCAGUUGAUUCACUGUAAGUGUUCUGUGGC	0.285
UAUCAGUUCAAGGUGGGAGUCUUUGCUCUCAUCACCUGCAGUUCCACCUUGUGUUCAGAAAGCAAAAGUGAAGUGAUAGCCAAGCAUGGGCCACUAGAUGGAGUAUCCUG	1.23
CUCCGUGAAGGUCUUAGUGUAUGUGUUUUGCUUGUUAACUGUCAUCGUGGUUGGGAUUAGACCUGUUUGGAAACAGCUGCUGUCAGUGAUGCUCCGGUGUGCCAAGCCCC	5.53

Series 8
Substance: IMMT (Homo sapiens, UniProt Q16891)
Technique: cross-linking MS
Matrix: cell fractions
With: DSSO
partner	cross-linked residues
MICOS10 (Homo sapiens, UniProt Q5TGZ0)	K726 to K74
EDRF1 (Homo sapiens, UniProt Q3B7T1)	K110 to K196
APOO (Homo sapiens, UniProt Q9BUR5)	K714 to K32

Series 9
Target: Sal-like protein 4, full length isoform A (SALL4, Homo sapiens, UniProt Q9UJQ4, residues 1-1053)
Chain of UniProt Q9UJQ4 (whole entry, looked up): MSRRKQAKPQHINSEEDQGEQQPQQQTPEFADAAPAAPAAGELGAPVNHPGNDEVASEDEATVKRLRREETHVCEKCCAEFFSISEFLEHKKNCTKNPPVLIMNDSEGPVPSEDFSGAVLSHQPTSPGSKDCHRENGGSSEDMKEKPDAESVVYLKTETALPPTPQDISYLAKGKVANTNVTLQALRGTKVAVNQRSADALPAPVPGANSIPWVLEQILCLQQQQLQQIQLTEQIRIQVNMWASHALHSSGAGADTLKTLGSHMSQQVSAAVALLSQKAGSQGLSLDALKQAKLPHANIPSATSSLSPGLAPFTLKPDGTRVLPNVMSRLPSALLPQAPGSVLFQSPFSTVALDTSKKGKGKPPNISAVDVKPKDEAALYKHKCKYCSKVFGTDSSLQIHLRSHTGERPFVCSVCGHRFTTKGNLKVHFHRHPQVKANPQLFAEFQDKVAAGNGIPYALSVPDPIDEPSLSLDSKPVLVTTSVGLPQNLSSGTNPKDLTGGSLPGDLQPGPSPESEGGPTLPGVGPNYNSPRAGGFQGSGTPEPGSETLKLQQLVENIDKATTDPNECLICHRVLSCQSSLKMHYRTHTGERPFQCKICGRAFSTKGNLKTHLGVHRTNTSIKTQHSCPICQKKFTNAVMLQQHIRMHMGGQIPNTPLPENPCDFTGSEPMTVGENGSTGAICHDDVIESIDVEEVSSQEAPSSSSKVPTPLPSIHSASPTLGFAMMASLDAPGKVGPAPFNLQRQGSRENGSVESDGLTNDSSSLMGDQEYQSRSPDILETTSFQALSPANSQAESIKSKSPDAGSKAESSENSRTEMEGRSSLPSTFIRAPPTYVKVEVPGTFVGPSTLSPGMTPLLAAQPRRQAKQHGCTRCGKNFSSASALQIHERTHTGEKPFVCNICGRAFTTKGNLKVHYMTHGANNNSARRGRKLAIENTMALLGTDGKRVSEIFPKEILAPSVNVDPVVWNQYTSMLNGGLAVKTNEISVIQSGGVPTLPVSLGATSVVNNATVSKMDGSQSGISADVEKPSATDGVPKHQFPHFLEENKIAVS
Technique: universal PBM
Form: double-stranded DNA, one strand shown
Matrix: in vitro
Tested at: 600 nM
Setting: 8-mer, flanks averaged, mean of replicates
Reading: higher = stronger binding
Sequence	E-score
ACGCGAGC	-0.184
CACCGCCC	-0.236
ACCTACCA	-0.12
AGGCAAGC	-0.181
AAAATCTA	0.294
CGGCTGCC	-0.331
CGCCTTCA	-0.122
AACAGTTG	-0.0427
CTGTGACC	-0.225
ACAGGTCC	-0.193
GCTTCGAC	-0.181
ATTGGCTG	-0.0426
GGTGAAAA	0.0848
CAGACGAC	-0.213
AAGGTTAC	-0.022
CCATCGGG	-0.257
CTCATAAA	0.302
CGTTCTTA	0.003

A few entries again (series 6):
Change	normalised enrichment score
K4F	0.727
G1V	1.89
E10P	1.4
D11M	0.494
S2Y	0.754
P12S	2.99
P13S	1.38
P12E	3.18
F8K	0.379
R5D	1.04
